Measurements pooled from the literature.
± gives the spread as reported.

Compound	assay	test system	setting	scale	quantity	value
CN[C@@](C)(C[18F])C(=O)O	–	SCID mouse DU-145 xenograft, brain	15 min, post injection	–	tissue uptake	0.4 ± 0.2 %ID/g
CC[C@H](C)[C@H](NC(=O)[C@H](Cc1c[nH]c2ccccc12)NC(=O)[C@@H]1CSSC[C@H](NC(=O)[C@H](CCC(=O)O)NC(=O)[C@H](Cc2c[nH]c3ccccc23)NC(=O)[C@H](CCC(N)=O)NC(=O)COCCOCCNC(=O)[C@H](CCC(=O)O)NC(=O)[C@H](Cc2c[nH]cn2)NC(=O)[C@@H](N)Cc2c[nH]cn2)C(=O)N2CCC[C@H]2C(=O)N[C@@H](Cc2ccc(O)cc2)C(=O)NCC(=O)N[C@@H](CC(C)C)C(=O)N1)C(=O)N[C@@H](CCC(N)=O)C(=O)O [technetium-99m labelled]	–	male C57BL/6 mouse, blood	intravenous	–	elimination half-life	2.9 ± 0.437 h
O=c1[nH]c(Cc2ccccn2)nc2c1cnn2C1CCOCC1	–	healthy men, extensive metabolizers, plasma	oral, 25 mg single dose, tablet, geometric mean	–	AUC(0-inf)	0.351 µM·h
CC(C)C[C@H](NC(=O)[C@H](Cc1cccc2ccccc12)NC(=O)[C@H](CNC(=O)c1ccc(F)nc1)NC(=O)[C@H](CO)NC(=O)C1CCNCC1)C(=O)N[C@@H](CCO)C(=O)N1CCC[C@H]1C(=O)N[C@H](C(N)=O)[C@@H](C)O	chemical stability	male human, serum	1 mM, pH 7.4	–	half-life	> 24 h
COc1ccc([C@@H]2CC(=O)c3c(O)cc(O[C@@H]4O[C@H](CO[C@@H]5O[C@@H](C)[C@H](O)[C@@H](O)[C@H]5O)[C@@H](O)[C@H](O)[C@H]4O)cc3O2)cc1O	shake flask	water with ethanol or surfactants (Tween 80, TPGS)	–	–	solubility	no effect
CCCCCCCCCC(=O)N[C@@H](Cc1ccccc1)C(=O)N[C@H](C(=O)NCC(=O)N[C@H](C(=O)N[C@@H](CC(C)C)C(=O)N[C@H](C(=O)N1CCC[C@H]1C(=O)N[C@@H](CC(C)C)C(=O)N[C@@H](C)C(=O)N[C@@H](CC(C)C)C(=O)NCC(=O)N[C@@H](C)C(=O)N[C@@H](CC(C)C)C(=O)N[C@H](C(=O)N[C@@H](CCCCN)C(=O)N[C@@H](CC(C)C)C(=O)N[C@@H](Cc1ccccc1)C(=O)N[C@@H](CCCCN)C(N)=O)[C@@H](C)O)[C@@H](C)CC)[C@@H](C)O)[C@@H](C)CC	reversed-phase HPLC	–	hydrophobicity measure	–	retention time	12.3 min
COc1ccc(OC)c(C=CC(=O)C=Cc2cc(OC)ccc2OC)c1	fish embryo acute toxicity test	zebrafish (Danio rerio) embryos wild-type	immersion, up to 96 h, 0.1% DMSO	–	LC50	< 200 µM
CN[C@H](CC(C)C)C(=O)N[C@H]1C(=O)N[C@@H](CC(N)=O)C(=O)N[C@H]2C(=O)N[C@H]3C(=O)N[C@H](C(=O)N[C@H](C(=O)O)c4cc(O)cc(O)c4-c4cc3ccc4O)[C@H](O)c3ccc(c(Cl)c3)Oc3cc2cc(c3O[C@@H]2O[C@H](CO)[C@@H](O)[C@H](O)[C@H]2O[C@H]2C[C@](C)(N)[C@H](O)[C@H](C)O2)Oc2ccc(cc2Cl)[C@H]1O	HPLC-MS/MS	Wistar rat, serum	intravenous bolus, 1 mg/kg, 10 to 90 min	–	AUC	1770 ± 417 ng·h/mL
[123I]c1cncc(OC[C@@H]2CCN2)c1	SPECT	human, thalamus	intravenous bolus, 9.1 mCi	relative to: plasma	tissue/plasma ratio	29.2
O=C(N[C@@H](Cn1ccnc1)c1ccc(-c2ccc(F)cc2)cc1F)c1ccc(-c2nnc(-c3ccccc3)o2)cc1	–	mouse, plasma	oral, 25 mg/kg, HPCD formulation	–	AUC	64 ng·h/mL
O=C1CC(c2ccc(O)cc2)Oc2cc(O)cc(O)c21 (centres unmarked)	–	Wistar rat	oral gavage, 28 days, dose range-finding toxicity study	–	no-effect dose, highest tested	≤ 4000 mg/kg/day

Excerpt of the above:
Compound	assay	test system	setting	scale	quantity	value
O=c1[nH]c(Cc2ccccn2)nc2c1cnn2C1CCOCC1	–	healthy men, extensive metabolizers, plasma	oral, 25 mg single dose, tablet, geometric mean	–	AUC(0-inf)	0.351 µM·h
